Published values gathered from unrelated publications.
Every numbered part comes from another study and shows a few of its results, in no order.
Sequence of UniProt O14936 (whole entry, looked up): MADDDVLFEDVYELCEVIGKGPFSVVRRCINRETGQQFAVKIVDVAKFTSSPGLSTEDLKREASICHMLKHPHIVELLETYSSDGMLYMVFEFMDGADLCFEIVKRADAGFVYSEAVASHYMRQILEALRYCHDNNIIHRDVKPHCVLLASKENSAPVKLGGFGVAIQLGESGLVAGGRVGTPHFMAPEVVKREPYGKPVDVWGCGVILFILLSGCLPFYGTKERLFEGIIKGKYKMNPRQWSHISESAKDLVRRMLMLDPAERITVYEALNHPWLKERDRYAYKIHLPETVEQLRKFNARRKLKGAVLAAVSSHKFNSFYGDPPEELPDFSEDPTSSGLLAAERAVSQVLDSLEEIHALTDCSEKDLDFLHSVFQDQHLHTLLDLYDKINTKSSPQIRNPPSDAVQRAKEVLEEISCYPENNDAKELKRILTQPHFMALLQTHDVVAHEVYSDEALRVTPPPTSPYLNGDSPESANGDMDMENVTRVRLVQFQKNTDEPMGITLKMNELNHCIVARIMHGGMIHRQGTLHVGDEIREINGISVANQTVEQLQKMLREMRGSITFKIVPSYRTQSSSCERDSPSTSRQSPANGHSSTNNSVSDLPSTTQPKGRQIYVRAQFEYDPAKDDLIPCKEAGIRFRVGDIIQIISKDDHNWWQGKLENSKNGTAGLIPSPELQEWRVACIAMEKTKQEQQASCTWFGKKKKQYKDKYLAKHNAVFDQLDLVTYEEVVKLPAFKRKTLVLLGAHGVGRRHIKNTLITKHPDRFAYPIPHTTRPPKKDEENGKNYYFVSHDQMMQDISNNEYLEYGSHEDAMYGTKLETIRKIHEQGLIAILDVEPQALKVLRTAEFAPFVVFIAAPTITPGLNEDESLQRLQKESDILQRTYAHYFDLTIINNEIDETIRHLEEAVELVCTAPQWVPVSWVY
Sequence of UniProt P54753 (whole entry, looked up): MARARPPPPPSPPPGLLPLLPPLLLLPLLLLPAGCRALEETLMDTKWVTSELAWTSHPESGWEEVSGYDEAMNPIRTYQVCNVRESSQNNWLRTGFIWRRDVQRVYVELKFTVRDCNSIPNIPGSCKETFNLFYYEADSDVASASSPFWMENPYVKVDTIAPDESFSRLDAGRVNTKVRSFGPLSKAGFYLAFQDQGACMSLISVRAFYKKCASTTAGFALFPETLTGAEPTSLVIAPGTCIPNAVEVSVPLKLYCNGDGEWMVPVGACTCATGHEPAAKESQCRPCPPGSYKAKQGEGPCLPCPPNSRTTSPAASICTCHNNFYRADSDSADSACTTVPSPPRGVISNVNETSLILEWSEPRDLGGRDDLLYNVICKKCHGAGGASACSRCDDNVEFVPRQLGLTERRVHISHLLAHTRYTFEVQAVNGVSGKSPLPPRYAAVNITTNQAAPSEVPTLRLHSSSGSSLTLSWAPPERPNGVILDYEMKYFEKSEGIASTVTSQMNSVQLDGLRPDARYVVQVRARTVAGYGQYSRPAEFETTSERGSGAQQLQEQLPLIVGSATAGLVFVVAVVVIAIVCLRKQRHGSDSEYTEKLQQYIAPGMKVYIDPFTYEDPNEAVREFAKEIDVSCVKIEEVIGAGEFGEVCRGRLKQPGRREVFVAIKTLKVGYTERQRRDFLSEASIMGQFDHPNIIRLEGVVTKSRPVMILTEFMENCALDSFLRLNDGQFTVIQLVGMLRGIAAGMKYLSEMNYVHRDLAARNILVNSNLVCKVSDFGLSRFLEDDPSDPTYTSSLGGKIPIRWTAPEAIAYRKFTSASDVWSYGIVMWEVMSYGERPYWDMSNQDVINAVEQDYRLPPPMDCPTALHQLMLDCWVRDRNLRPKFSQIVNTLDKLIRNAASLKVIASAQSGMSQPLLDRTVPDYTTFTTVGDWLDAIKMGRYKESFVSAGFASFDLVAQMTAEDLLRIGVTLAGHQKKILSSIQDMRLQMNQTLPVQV
Sequence of UniProt Q96SB4 (whole entry, looked up): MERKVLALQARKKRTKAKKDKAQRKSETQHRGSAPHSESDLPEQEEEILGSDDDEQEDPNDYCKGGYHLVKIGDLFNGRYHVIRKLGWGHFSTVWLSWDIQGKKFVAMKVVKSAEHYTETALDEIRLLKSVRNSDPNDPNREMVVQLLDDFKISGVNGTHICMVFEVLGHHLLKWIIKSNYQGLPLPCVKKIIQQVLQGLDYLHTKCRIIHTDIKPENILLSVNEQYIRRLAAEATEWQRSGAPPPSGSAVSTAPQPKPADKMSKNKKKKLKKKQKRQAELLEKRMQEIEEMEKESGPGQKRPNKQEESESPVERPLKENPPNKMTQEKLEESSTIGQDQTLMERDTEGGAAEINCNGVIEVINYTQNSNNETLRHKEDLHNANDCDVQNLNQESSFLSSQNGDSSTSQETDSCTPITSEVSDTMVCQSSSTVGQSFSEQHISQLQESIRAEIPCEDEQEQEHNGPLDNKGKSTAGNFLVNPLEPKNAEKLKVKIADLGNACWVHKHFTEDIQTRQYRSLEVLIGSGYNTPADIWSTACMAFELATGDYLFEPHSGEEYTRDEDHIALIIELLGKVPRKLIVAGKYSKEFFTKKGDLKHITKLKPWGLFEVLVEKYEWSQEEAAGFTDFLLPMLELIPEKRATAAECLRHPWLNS
Sequence of UniProt Q8IY84 (whole entry, looked up): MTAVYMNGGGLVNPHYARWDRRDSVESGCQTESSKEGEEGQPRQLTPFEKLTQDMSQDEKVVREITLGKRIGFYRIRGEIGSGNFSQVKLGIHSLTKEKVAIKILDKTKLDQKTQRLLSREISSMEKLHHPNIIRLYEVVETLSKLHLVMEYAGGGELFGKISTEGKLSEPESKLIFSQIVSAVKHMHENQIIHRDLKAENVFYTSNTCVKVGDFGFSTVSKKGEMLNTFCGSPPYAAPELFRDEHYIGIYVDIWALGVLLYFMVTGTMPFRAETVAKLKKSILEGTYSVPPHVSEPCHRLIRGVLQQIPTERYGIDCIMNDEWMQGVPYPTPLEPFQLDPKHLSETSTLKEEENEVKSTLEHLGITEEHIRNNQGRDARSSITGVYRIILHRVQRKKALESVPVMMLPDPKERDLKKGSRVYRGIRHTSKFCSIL
Sequence of UniProt Q86Y07 (whole entry, looked up): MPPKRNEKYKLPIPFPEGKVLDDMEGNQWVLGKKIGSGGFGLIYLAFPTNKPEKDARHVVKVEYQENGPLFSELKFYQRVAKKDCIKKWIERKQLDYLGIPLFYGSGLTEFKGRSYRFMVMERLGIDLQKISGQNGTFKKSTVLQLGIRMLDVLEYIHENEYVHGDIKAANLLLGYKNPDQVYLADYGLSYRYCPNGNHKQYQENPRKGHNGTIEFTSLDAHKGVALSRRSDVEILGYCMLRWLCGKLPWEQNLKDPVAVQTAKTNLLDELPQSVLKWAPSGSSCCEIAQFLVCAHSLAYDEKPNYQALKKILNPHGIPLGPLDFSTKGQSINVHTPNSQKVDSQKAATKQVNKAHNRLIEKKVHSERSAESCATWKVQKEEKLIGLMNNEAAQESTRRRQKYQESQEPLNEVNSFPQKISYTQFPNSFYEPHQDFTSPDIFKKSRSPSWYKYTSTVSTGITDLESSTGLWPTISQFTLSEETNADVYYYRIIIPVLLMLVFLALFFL
Sequence of UniProt Q86UE8 (whole entry, looked up): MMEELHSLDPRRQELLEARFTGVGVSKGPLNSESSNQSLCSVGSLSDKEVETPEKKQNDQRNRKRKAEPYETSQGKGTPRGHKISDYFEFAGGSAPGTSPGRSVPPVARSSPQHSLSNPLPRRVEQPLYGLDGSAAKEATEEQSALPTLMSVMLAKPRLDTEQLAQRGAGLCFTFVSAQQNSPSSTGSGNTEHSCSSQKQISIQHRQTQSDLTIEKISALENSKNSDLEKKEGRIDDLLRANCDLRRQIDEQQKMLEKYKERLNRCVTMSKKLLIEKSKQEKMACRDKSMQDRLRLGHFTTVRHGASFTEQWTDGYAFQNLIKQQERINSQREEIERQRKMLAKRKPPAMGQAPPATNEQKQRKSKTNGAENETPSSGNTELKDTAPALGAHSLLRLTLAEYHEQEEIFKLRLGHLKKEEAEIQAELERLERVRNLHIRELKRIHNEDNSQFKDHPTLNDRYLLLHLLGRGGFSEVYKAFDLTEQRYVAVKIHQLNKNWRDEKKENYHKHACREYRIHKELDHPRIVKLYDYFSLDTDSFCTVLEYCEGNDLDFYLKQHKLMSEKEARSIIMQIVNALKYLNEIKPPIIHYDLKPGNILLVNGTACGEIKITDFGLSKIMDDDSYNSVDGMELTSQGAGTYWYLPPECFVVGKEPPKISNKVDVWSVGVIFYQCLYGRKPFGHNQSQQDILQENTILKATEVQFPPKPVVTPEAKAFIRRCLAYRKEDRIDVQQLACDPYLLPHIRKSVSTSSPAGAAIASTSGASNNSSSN
Sequence of UniProt P45983 (whole entry, looked up): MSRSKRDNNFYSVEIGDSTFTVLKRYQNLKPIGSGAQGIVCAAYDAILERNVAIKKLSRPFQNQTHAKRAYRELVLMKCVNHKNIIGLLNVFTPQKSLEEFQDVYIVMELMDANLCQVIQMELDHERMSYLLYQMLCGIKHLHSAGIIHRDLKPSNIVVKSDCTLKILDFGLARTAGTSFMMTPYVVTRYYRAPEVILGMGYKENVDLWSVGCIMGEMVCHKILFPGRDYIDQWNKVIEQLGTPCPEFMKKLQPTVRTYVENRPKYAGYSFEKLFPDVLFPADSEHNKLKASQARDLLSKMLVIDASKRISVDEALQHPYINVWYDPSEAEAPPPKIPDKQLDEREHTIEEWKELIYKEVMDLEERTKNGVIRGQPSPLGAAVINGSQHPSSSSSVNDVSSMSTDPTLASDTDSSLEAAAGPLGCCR

Series 1
Cell line: sample D normal colon organoid
Method: CellTiter-Glo
Concentration: 1 µM
Notes: mean of replicates
Baseline: DMSO
Quantity: viability
COc1cc(-c2cn(C3CCc4c(F)cccc4N(CC(F)(F)F)C3=O)nn2)ccc1-n1cnc(C)c1 (centres unmarked): 119%
Cn1cncc1[C@](O)(COc1ccc(C#N)cc1-c1ccc(OC(F)(F)F)cc1)c1ccc(C#N)cc1: 52.8%
CN1CCN(C(=O)C(C)(C)c2ccc(C(=O)Nc3cn4cc(-c5cc(C(C)(C)C)cc(C(C)(C)C)c5)ccc4n3)cc2)CC1: 107%
Cc1nc(C2CCN(C(=O)c3ccc(OC(F)(F)F)cc3N)CC2)c2ncc(N3CCN(C)CC3)cc2n1: 85.6%
C[C@H](c1ccnc(Nc2nc3ccc(-c4cc(N(C)C)ncn4)cc3[nH]2)c1)N1CCN(C(=O)CC(F)(F)F)CC1: 87.8%
CN(c1ccnc(CNc2nc(Nc3ccc4c(c3)CC(=O)N4)ncc2C(F)(F)F)n1)S(C)(=O)=O: 85.5%
C[C@H](c1cccc(C#N)c1)n1cc(Cl)cc(C(N)=O)c1=N: 123%
Cn1nc(C(F)(F)F)cc1-c1cnc(N2CCc3cc(S(=O)(=O)Nc4c(F)cc(Cl)cc4F)cc(N4CCCC4=O)c32)nc1: 113%
CN1CCN(Cc2ccc(Nc3ncc(Cl)c(Nc4ccccc4S(=O)(=O)N(C)C)n3)cc2)CC1: 2.5%
C[C@@]1(Cc2ccc(C#N)cc2)C(=O)N(c2cc(Cl)cc(Cl)c2)c2ncc(C(=O)NC3(c4nc(C5CCC5)no4)CC3)n21: 84.2%
CC1=C(C#N)C(c2ccc3c(c2)c(NC(=O)c2ccccc2C)nn3C)C(C#N)=C(C)N1: 98.1%
COc1cc(-c2cn(C3CCc4ccccc4N(CC(F)(F)F)C3=O)nn2)ccc1-n1ccc(C)n1 (centres unmarked): 77.9%
CCC(=O)N[C@H]1CC[C@@H](C(=O)N(C)c2ccc(-c3nc4ccccc4o3)cc2)C1: 58.9%
Cc1cn(-c2cc(NC(=O)c3ccc4c(c3)CN(c3cncnc3)C[C@@H]4C)cc(C(F)(F)F)c2)cn1: 98.1%

Series 2
Cell line: HaCaT
Concentration: 100 µM
Time: 36 h
Quantity: viability
CCN1CCN(C(=O)N[C@@H](C(=O)N[C@@H]2C(=O)N3C(C(=O)O)=C(CSc4nnnn4C)CS[C@H]23)c2ccc(O)cc2)C(=O)C1=O: 113%
CN1C(C)(C)CCCC1(C)C: 90.6%
O=C(Nc1ccccc1)c1ccccc1O: 28.9%
NC(=O)c1cccnc1: 94.2%
O=C(O)CSCC(=O)NC1CCSC1=O (centres unmarked): 72.3%
COc1ccc([C@@H]2CC(=O)c3c(O)cc(O[C@@H]4O[C@H](CO[C@@H]5O[C@@H](C)[C@H](O)[C@@H](O)[C@H]5O)[C@@H](O)[C@H](O)[C@H]4O)cc3O2)cc1OC: 89.4%
COc1ccc(Cl)cc1C(=O)NCCc1ccc(S(=O)(=O)NC(=O)NC2CCCCC2)cc1: 88.6%
COc1cccc2c1C(=O)c1c(O)c3c(c(O)c1C2=O)C[C@@](O)(C(=O)CO)C[C@@H]3O[C@H]1C[C@H](N)[C@H](O)[C@H](C)O1: 26.4%
Cc1ccc(NC(=O)C2(c3ccc4c(c3)OC(F)(F)O4)CC2)nc1-c1cccc(C(=O)O)c1: 84.2%
CCN(CC)C(=O)c1ccc(O)c(OC)c1: 84.4%
OCc1ccc(O[C@@H]2O[C@H](CO)[C@@H](O)[C@H](O)[C@H]2O)cc1: 86.7%
NCCCNCCSP(=O)(O)O: 97.2%
CC(C)(O/N=C(\C(=O)N[C@@H]1C(=O)N2C(C(=O)[O-])=C(C[n+]3ccccc3)CS[C@H]12)c1csc(N)n1)C(=O)O: 99.3%
C[C@H]1[C@H](C)CC[C@]2(C(=O)O)CC[C@]3(C)C(=CC[C@@H]4[C@@]5(C)C[C@@H](O)[C@H](O)[C@@](C)(CO)[C@@H]5CC[C@]43C)[C@H]12: 5.74%
Nc1ccc(/N=N/c2ccccc2)c(N)n1: 41.6%

Series 3
Target: Aurora kinase C (AURKC, Homo sapiens, UniProt Q9UQB9)
Effect on: enzyme activity
Action: inhibitor
Concentration: 0.5 µM
Baseline: control
Quantity: remaining activity
Construct (Q9UQB9 1-309): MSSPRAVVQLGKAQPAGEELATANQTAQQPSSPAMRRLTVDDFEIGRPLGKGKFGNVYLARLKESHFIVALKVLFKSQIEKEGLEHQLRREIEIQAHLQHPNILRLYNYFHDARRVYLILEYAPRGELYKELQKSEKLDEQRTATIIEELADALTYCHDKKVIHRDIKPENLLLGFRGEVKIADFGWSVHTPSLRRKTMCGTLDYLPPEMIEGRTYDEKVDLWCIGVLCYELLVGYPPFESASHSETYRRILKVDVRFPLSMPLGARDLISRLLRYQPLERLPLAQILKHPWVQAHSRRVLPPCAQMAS
N#C/C(=C(/N)SC1C=CC=CC1)c1cccc(C(O)c2ccncc2)c1 (centres unmarked): 101%
CC(C)N(CCC(=O)c1ccc2ccccc2c1)Cc1ccccc1: 97.5%
C[C@@H](N)[C@H]1CC[C@H](C(=O)Nc2ccncc2)CC1: 94.9%
O=C(c1ccccc1)c1ccc(N2CCOCC2)cc1O: 102%
CCN(CC)CCCCN1c2ccccc2Oc2ccc(Cl)cc21: 99.3%
Nc1nc(Nc2ccc(S(N)(=O)=O)cc2)nn1C(=S)Nc1c(F)cccc1F: 16.2%
NC(=O)c1ccc(-c2nc(-c3ccc4c(c3)OCCO4)c(-c3ccccn3)[nH]2)cc1: 87.8%
COc1cc2c(N3CCN(C(=O)Nc4ccc(OC(C)C)cc4)CC3)ncnc2cc1OCCCN1CCCCC1: 97%
O=Nc1c(-c2c(O)[nH]c3ccccc23)[nH]c2ccccc12: 56.4%
NC(=O)c1cccc(-c2cc(Nc3ccc(OC(F)(F)F)cc3)ncn2)c1: 101%
CC(C)(C)c1nc2c3cc[nH]c(=O)c3c3cc(F)ccc3c2[nH]1: 29.2%
FC(F)(F)c1ccc(/C=C/c2nc(COc3ccc(CCCCn4ccnn4)cc3)co2)cc1: 97.1%
N#CC(c1ccnc(NCCc2cccnc2)n1)c1nc2ccccc2s1 (centres unmarked): 96%
O=C1NC(=O)/C(=C/c2ccc3c(c2)OC(F)(F)O3)S1: 98.1%
CC(C)n1cnc2c(Nc3cccc(Cl)c3)nc(NCCO)nc21: 92.1%
O=C1c2ccccc2-c2nc3nnnn3nc21: 95.4%
CCCCc1c(-c2ccc(O)cc2)[nH]c2nccnc12: 44.9%
Clc1ccc(Nc2nnc(Cc3ccncc3)c3ccccc23)cc1: 87%
O=c1c(-c2ccc(F)cc2)c(-c2ccncc2)[nH]n1-c1ccc(Cl)cc1: 100%
O=C(O)/C=C/c1cc(Br)c(Br)c(Br)c1Br: 90.3%
c1cc(-c2cnn3cc(-c4ccc(OCCN5CCCCC5)cc4)cnc23)ccn1: 70.4%
CNc1cc2c(Nc3cccc(Br)c3)ncnc2cn1: 85.9%

Series 4
SMILES: CC#CC(=O)N1CCC[C@H]1c1nc(-c2ccc(C(=O)Nc3ccccn3)cc2)c2c(N)nccn12
Effect on: enzyme activity
Action: inhibitor
Concentration: 1 µM
Quantity: inhibition
SRPK1 (Homo sapiens, UniProt Q96SB4): 0%
ALK (Homo sapiens, UniProt Q9UM73): 8%
MAP3K1 (Homo sapiens, UniProt Q13233): 0%
COQ8B (Homo sapiens, UniProt Q96D53): 0%
CASK (Homo sapiens, UniProt O14936): 39%
MAPK8 (Homo sapiens, UniProt P45983): 19%
PRKAA2 (Homo sapiens, UniProt P54646): 0%
MTOR (Homo sapiens, UniProt P42345): 0%
SIK2 (Homo sapiens, UniProt Q9H0K1): 0%
VRK2 (Homo sapiens, UniProt Q86Y07): 32%
KIT (Homo sapiens, UniProt P10721, D816H): 0%
GSK3A (Homo sapiens, UniProt P49840): 1%
NIM1K (Homo sapiens, UniProt Q8IY84): 0%
TLK2 (Homo sapiens, UniProt Q86UE8): 3%
CHUK (Homo sapiens, UniProt O15111): 0%
EPHB3 (Homo sapiens, UniProt P54753): 15%
ERBB3 (Homo sapiens, UniProt P21860): 34%

A few entries again (series 2):
COc1ccc(Cl)cc1C(=O)NCCc1ccc(S(=O)(=O)NC(=O)NC2CCCCC2)cc1: 88.6%
COc1cccc2c1C(=O)c1c(O)c3c(c(O)c1C2=O)C[C@@](O)(C(=O)CO)C[C@@H]3O[C@H]1C[C@H](N)[C@H](O)[C@H](C)O1: 26.4%
Cc1ccc(NC(=O)C2(c3ccc4c(c3)OC(F)(F)O4)CC2)nc1-c1cccc(C(=O)O)c1: 84.2%
CCN(CC)C(=O)c1ccc(O)c(OC)c1: 84.4%
OCc1ccc(O[C@@H]2O[C@H](CO)[C@@H](O)[C@H](O)[C@H]2O)cc1: 86.7%
NCCCNCCSP(=O)(O)O: 97.2%
CC(C)(O/N=C(\C(=O)N[C@@H]1C(=O)N2C(C(=O)[O-])=C(C[n+]3ccccc3)CS[C@H]12)c1csc(N)n1)C(=O)O: 99.3%
